{"data": "Assay results gathered from unrelated publications", "note": "Parts stem from different laboratories: compare values within a part only. Changes are numbered by the printed parent chain."}
{"data": "Study 1", "target": "Sal-like protein 4, full length isoform A (SALL4, Homo sapiens, UniProt Q9UJQ4, residues 1-1053)", "method": "universal PBM", "molecule type": "double-stranded DNA, one strand shown", "medium": "in vitro", "tested at": "600 nM", "setting": "8-mer, flanks averaged, mean of replicates", "direction": "higher = stronger binding", "UniProt Q9UJQ4, sequence (whole entry, looked up)": "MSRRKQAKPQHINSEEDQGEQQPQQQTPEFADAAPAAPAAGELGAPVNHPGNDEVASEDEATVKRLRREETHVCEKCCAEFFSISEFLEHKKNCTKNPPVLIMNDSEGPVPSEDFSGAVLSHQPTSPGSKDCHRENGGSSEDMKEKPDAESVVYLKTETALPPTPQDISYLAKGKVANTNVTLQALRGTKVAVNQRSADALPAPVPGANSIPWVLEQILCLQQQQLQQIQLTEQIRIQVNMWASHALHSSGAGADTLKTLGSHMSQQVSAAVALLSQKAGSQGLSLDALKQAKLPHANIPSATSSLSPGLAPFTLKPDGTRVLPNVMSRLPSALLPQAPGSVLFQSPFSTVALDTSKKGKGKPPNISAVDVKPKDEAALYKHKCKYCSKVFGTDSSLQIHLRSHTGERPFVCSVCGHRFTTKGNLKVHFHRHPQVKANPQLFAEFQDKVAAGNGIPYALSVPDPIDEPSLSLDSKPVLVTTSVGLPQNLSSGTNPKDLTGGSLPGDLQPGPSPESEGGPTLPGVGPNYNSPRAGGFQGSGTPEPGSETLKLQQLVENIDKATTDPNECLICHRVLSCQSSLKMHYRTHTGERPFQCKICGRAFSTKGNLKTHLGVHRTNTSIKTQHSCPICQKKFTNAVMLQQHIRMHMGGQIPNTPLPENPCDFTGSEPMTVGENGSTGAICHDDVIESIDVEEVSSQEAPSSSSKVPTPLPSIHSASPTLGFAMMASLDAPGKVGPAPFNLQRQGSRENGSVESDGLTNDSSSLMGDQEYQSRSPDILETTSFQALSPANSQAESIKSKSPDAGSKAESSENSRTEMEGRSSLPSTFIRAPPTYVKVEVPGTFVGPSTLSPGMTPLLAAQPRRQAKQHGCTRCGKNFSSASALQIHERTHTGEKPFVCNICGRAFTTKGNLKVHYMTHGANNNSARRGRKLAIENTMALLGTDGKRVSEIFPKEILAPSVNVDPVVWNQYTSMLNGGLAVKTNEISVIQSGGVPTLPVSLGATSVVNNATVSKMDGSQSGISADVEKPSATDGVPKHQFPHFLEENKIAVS"}
{"Strand": "AAGCTCAT", "E-score": -0.0501}
{"Strand": "GTGATAAA", "E-score": 0.231}
{"Strand": "CCTCAATC", "E-score": 0.014}
{"Strand": "AGCGATGC", "E-score": -0.273}
{"Strand": "ATATGGAC", "E-score": 0.175}
{"Strand": "AATCACTA", "E-score": 0.16}
{"Strand": "GGAGCTCC", "E-score": -0.217}
{"Strand": "CCGTTAAA", "E-score": 0.0476}
{"Strand": "CGCGACCG", "E-score": -0.302}
{"Strand": "GCAAGGCC", "E-score": -0.273}
{"Strand": "CTTACCGA", "E-score": 0.0555}
{"data": "Study 2", "target": "CCND2, cyclin fold, Cln2 fusion (human)", "method": "yeast growth competition, sequencing", "medium": "yeast", "setting": "weak parent motif", "baseline": "not given", "direction": "higher = stronger binding", "parent": "SAMHD1 docking peptide (human); ASKSRVQLFKDDP"}
{"Substitution": "AQKSRVQLFKDDP [S2Q]", "normalised enrichment score": 0.211}
{"Substitution": "ASKSRVNLFKDDP [Q7N]", "normalised enrichment score": 0.158}
{"Substitution": "ASKLRVQLFKDDP [S4L]", "normalised enrichment score": -0.134}
{"Substitution": "ASKSWVQLFKDDP [R5W]", "normalised enrichment score": 0.379}
{"Substitution": "ASKSRVQLFKDRP [D12R]", "normalised enrichment score": -0.265}
{"Substitution": "ASKSRVGLFKDDP [Q7G]", "normalised enrichment score": 0.458}
{"Substitution": "ASKSRVQLFKCDP [D11C]", "normalised enrichment score": 0.346}
{"Substitution": "ASKSRVKLFKDDP [Q7K]", "normalised enrichment score": 0.258}
{"Substitution": "ASKSRVQLFKTDP [D11T]", "normalised enrichment score": 0.795}
{"Substitution": "ALKSRVQLFKDDP [S2L]", "normalised enrichment score": 0.0552}
{"Substitution": "ADKSRVQLFKDDP [S2D]", "normalised enrichment score": -0.0294}
{"Substitution": "ASKSRVQIFKDDP [L8I]", "normalised enrichment score": -0.153}
{"Substitution": "ASKYRVQLFKDDP [S4Y]", "normalised enrichment score": 0.0223}
{"data": "Study 3", "target": "RNA binding protein fox-1 homolog 2, RRM domain, GST-SBP tag (RBFOX2, Homo sapiens, UniProt O43251-10, residues 100-194)", "method": "RNA Bind-n-Seq", "molecule type": "RNA", "medium": "in vitro", "tested at": "365 nM", "setting": "natural RNA segment, single round, ends assumed", "baseline": "no-protein control", "direction": "higher = stronger binding", "all sequences stand within": "GGGAGUUCUACAGUCCGACGAUC … UGGAAUUCUCGGGUGCCAA", "Residues (chain)": "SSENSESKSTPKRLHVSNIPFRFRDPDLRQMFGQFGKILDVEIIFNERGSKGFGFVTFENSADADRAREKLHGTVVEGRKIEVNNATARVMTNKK"}
{"Strand": "UUGUUCAUUUAAUAGCUUCUAAAAGGCCUUUUUGUUAUACAGUGCUUUUUUUCUAGUUUUAUGGACUUGGUUACUGUAAUAAUGUCUUGUUUUUAGCCAUGUAACUACAA", "RBNS enrichment (R)": 1.11}
{"Strand": "GAGGUAUCACUCAGGGUGCCAAGUACACACUCAUCCUCCAGGCAACAGAGAGGAUGGGGCUCCCCGAGUAGUGGGAGUUCUUUUGUGGCCUGUGCUGGGGGUAGGGAGCC", "RBNS enrichment (R)": 0.363}
{"Strand": "GGGCAAUGGUGUCUGUCCAGCCCCUCCCUCUGUCCCUGUGCUCCAAGCUGCCCCCGGCUGCAGCCCAGGCCAUGGACAUGUGCACCAGUAUGUACCUGCAGGCAUGGGGG", "RBNS enrichment (R)": 0.489}
{"Strand": "AGUAGAUGUGGGUUUAUGACUGCCAAGUUUGCCCAGUACAGUAGUUUUUUAUCACUAAAAGUUGGACUCAUUGAUGGAGUCCUGUAGUAGUUUCAGUGUUAGAUACAGUU", "RBNS enrichment (R)": 0.478}
{"Strand": "CUCCUGUUCAGAAUAAUACUUAUUUACGUGUGAAAGCAACAUGGAUGUGAUUCCCAACACAGAAUUUUCAUGACCCUUUUAUUGUAUACAAAUAAAUACCAUAACAGUUA", "RBNS enrichment (R)": 0.441}
{"Strand": "AGCACAUGUCCAGGAGGGUUGCUGUCGCACUAGCACCUAGGUAACACCAACUAGAUUAUUAUCAGGUACAGAAUCCUGUCCUGAACCUGGGCAAGGCUGGAGGUACUGUA", "RBNS enrichment (R)": 0.421}
{"Strand": "GCCCAUGGCCGUGGGUCUCCUCGCUGAGCUGCAACCUGAUGCAUCGACAUUUAAUGUUGGCAGUGUCAGGCCUCUGACUUGAGACUACUGCUGUCGCAGAUCCUCUCUCU", "RBNS enrichment (R)": 0.186}
{"Strand": "AGAAUAGGGACCGUGGGGUAUGGGGUGGGCAGUUAGAGGUUGGUCAUCCAGCAGUCAGAUGUGUCCUCGGUCCUCUGUGGCCCUCCGUUGCCGCCUGUGUGCUUUGCCCG", "RBNS enrichment (R)": 0.653}
{"Strand": "AAUCUGAAUACUAAACAUAUUAGACCCACCUGAAAAUAAUAUAGCCAAUUUCUAGGUAAUCUUACUGCUUUGUGGGUUUCUUUCCAUGUACAUCUACCUCUUCCAGCUGU", "RBNS enrichment (R)": 0.304}
{"Strand": "AGGAGGGUGCACAUAACCCUUACCCUACCUCUGCCAAAAAGUGGGGGCUGUACUGGGGACUGCUCGGAUGAUCUUUCUUAGUGCUACUUCUUUCAGCUGUCCCUGUAGCG", "RBNS enrichment (R)": 0.412}
{"Strand": "UCUGACAGGUAAAAUGCUAAAAUAAGCUACCUGUAAUAAGUGUGGAUUAUAUUUUUGGGUUUUGUAGAAUAUUGCAAAUUAACCACACAAAAAAUGUUUAAUUUAUGCAA", "RBNS enrichment (R)": 1.09}
{"data": "Other studies, line by line"}
{"Molecule": "PhoQ, residues 284 288 289 292 302 303 NLMGRA", "target": "PhoP, residues 12 14 15 18 19 SMASL (Escherichia coli, UniProt P23836)", "assay": "Sort-seq, item: YFP reporter", "system": "E. coli", "conditions": "PhoQ-PhoP variant library, added: 10 µM Mg2+", "scale": "baseline: high Mg2+ state, higher = stronger signaling", "endpoint": "fold induction", "value": 10.7}
{"note": "Excerpt of the above (study 3):"}
{"Strand": "GGGCAAUGGUGUCUGUCCAGCCCCUCCCUCUGUCCCUGUGCUCCAAGCUGCCCCCGGCUGCAGCCCAGGCCAUGGACAUGUGCACCAGUAUGUACCUGCAGGCAUGGGGG", "RBNS enrichment (R)": 0.489}
{"Strand": "CUCCUGUUCAGAAUAAUACUUAUUUACGUGUGAAAGCAACAUGGAUGUGAUUCCCAACACAGAAUUUUCAUGACCCUUUUAUUGUAUACAAAUAAAUACCAUAACAGUUA", "RBNS enrichment (R)": 0.441}
{"Strand": "UCUGACAGGUAAAAUGCUAAAAUAAGCUACCUGUAAUAAGUGUGGAUUAUAUUUUUGGGUUUUGUAGAAUAUUGCAAAUUAACCACACAAAAAAUGUUUAAUUUAUGCAA", "RBNS enrichment (R)": 1.09}
